Measurements collected from several papers.
Compare with care: the assays were run in different laboratories.
Organism: Pseudomonas aeruginosa

C=CCOC(=O)c1ccc(NC(=O)c2ccc(NC(=O)c3ccc(NC(=O)C(CC(N)=O)NC(=O)c4ccc(NC(=O)c5ccc([N+](=O)[O-])cc5)cc4)cc3)c(OC(C)C)c2OCC=C)cc1 (stereo not shown) — MIC (PA14 ΔmexAB): > 64 µg/mL
CSCC[C@H](NC(=O)[C@H](CCCNC(=N)N)NC(=O)[C@H](Cc1c[nH]c2ccccc12)NC(=O)[C@H](CCC(N)=O)NC(=O)[C@H](Cc1c[nH]c2ccccc12)NC(=O)[C@H](CCCNC(=N)N)NC(=O)[C@@H](N)CCCNC(=N)N)C(=O)N[C@@H](CCCCN)C(=O)N[C@@H](CCCCN)C(=O)N[C@@H](CC(C)C)C(=O)NCC(=O)NCCCC[C@H](NC(=O)CNC(=O)[C@H](CC(C)C)NC(=O)[C@H](CCCCN)NC(=O)[C@H](CCCCN)NC(=O)[C@H](CCSC)NC(=O)[C@H](CCCNC(=N)N)NC(=O)[C@H](Cc1c[nH]c2ccccc12)NC(=O)[C@H](CCC(N)=O)NC(=O)[C@H](Cc1c[nH]c2ccccc12)NC(=O)[C@H](CCCNC(=N)N)NC(=O)[C@@H](N)CCCNC(=N)N)C(=O)NCCCCCC(=O)N[C@@H](CSSC[C@H](NC(=O)CCCCCNC(=O)[C@H](CCCCNC(=O)CNC(=O)[C@H](CC(C)C)NC(=O)[C@H](CCCCN)NC(=O)[C@H](CCCCN)NC(=O)[C@H](CCSC)NC(=O)[C@H](CCCNC(=N)N)NC(=O)[C@H](Cc1c[nH]c2ccccc12)NC(=O)[C@H](CCC(N)=O)NC(=O)[C@H](Cc1c[nH]c2ccccc12)NC(=O)[C@H](CCCNC(=N)N)NC(=O)[C@@H](N)CCCNC(=N)N)NC(=O)CNC(=O)[C@H](CC(C)C)NC(=O)[C@H](CCCCN)NC(=O)[C@H](CCCCN)NC(=O)[C@H](CCSC)NC(=O)[C@H](CCCNC(=N)N)NC(=O)[C@H](Cc1c[nH]c2ccccc12)NC(=O)[C@H](CCC(N)=O)NC(=O)[C@H](Cc1c[nH]c2ccccc12)NC(=O)[C@H](CCCNC(=N)N)NC(=O)[C@@H](N)CCCNC(=N)N)C(N)=O)C(N)=O — MIC (broth microdilution; ATCC 27853; 24 h, 37 °C): 15 µM
CC[C@@H](C)[C@@H](NC(=O)[C@@H](C)NC(=O)[C@@H](CCCCN)NC(=O)[C@@H](CC(C)C)NC(=O)[C@@H](C)NC(=O)[C@H](NC(=O)[C@@H](CCCCN)NC(=O)[C@@H](CC(C)C)NC(=O)[C@H](NC(=O)[C@@H](CCCCN)NC(=O)[C@@H](CCCCN)NC(=O)[C@@H](CCCCN)NC(=O)[C@@H](C)NC(=O)[C@@H](CCCCN)NC(=O)[C@@H](CO)NC(=O)[C@@H](Cc1ccccc1)NC(=O)[C@H](NC(=O)[C@@H](CCCCN)NC(=O)[C@@H](CC(C)C)NC(=O)[C@@H](Cc1ccccc1)NC(=O)[C@@H](CO)NC(=O)[C@@H](CCCCN)NC(=O)[C@@H](Cc1c[nH]c2ccccc12)NC(=O)[C@@H](CCCCN)NC(C)=O)[C@H](C)O)C(C)C)[C@H](C)O)C(=O)N[C@H](CO)C(=O)N[C@H](CCCCN)C(N)=O — MIC (broth microdilution; M2; 24 h, 37 °C): 1.3 µM
CO[C@@H](C(N)=O)[C@H](NC(=O)c1ccc(NC(=O)c2ccc([N+](=O)[O-])cc2)cc1)C(=O)Nc1ccc(C(=O)Nc2ccc(C(=O)Nc3ccc(C(=O)O)cc3)c(O)c2OC(C)C)cc1 — MIC (microbial growth; PA14): 2 µg/mL
Cc1ccc2ccc3ccc(C)nc3c2n1.Cc1ccc2ccc3ccc(C)nc3c2n1.O.[Cl-].[Cl-].[Cl-].[Yb+3] — MIC: 125 µg/mL
Cc1cc(O)cc2c1C(=O)c1c(cc3oc(=O)cc(-c4ccc(Cl)cc4)c3c1O)C2=O — MIC (microbial growth): 64 µg/mL
CC(CCCOC(=O)CCC[N+](C)(C)C)C1CCC2C3CCC4CC(OC(=O)CCC[N+](C)(C)C)CCC4(C)C3CCC12C (stereo not shown) — MIC (microbial growth, broth dilution; ATCC27853; 16 h): 62.5 µg/mL
CC(C)=CCc1cc(-c2coc3cc(O)c(CC=C(C)C)c(O)c3c2=O)ccc1O — MIC (ATCC 10145): 128 µg/mL
CCn1[c]([Au-][Cl])[n+](CC)c2ccc(C(=O)OC)cc21 — MIC (broth dilution; PA7 DSM 24068; 20 h, 37 °C): > 60 µM
CC(C)=CCc1cc2c(cc1O)OCc1c-2oc2c(CC=C(C)C)c(O)ccc12 — MIC (ATCC 10145): 128 µg/mL
CC[C@@H](C)[C@@H](NC(=O)[C@@H](C)NC(=O)[C@@H](CCCCN)NC(=O)[C@@H](CC(C)C)NC(=O)[C@@H](CC(C)C)NC(=O)[C@H](NC(=O)[C@@H](CCCCN)NC(=O)[C@@H](CC(C)C)NC(=O)[C@@H](C)NC(=O)[C@@H](CCCCN)NC(=O)[C@@H](CCCCN)NC(=O)[C@@H](CCCCN)NC(=O)[C@@H](C)NC(=O)[C@@H](CCCCN)NC(=O)[C@@H](CO)NC(=O)[C@@H](Cc1ccccc1)NC(=O)[C@H](NC(=O)[C@@H](CCCCN)NC(=O)[C@@H](CC(C)C)NC(=O)[C@@H](Cc1ccccc1)NC(=O)[C@@H](CO)NC(=O)[C@@H](CCCCN)NC(=O)[C@@H](Cc1c[nH]c2ccccc12)NC(=O)[C@@H](CCCCN)NC(C)=O)[C@H](C)O)[C@H](C)O)C(=O)N[C@H](CO)C(=O)N[C@H](CCCCN)C(N)=O — MIC (broth microdilution; PAO1; 24 h, 37 °C): 1.3 µM
c1ccc(CN2CCOCCOCCN(CCCCCCCCCCN3CCOCCOCCN(CCCCCCCCCCN4CCOCCOCCN(Cc5ccccc5)CCOCCOCC4)CCOCCOCC3)CCOCCOCC2)cc1 — MIC (meropenem-resistant): 100 µM
CC1(C)S[C@@H]2[C@H](NC(=O)[C@H](NC(=O)C3=C(O)C(c4ccccc4F)NC3=O)c3ccccc3)C(=O)N2[C@H]1C(=O)O (stereo partly shown) — MIC (broth microdilution; PAO1, Mueller-Hinton broth; added: 2,2'-bipyridyl 30 µg/mL): 25 µg/mL
CC[C@@H](C)[C@@H](NC(=O)[C@@H](C)NC(=O)[C@@H](CCCCN)NC(=O)[C@@H](CC(C)C)NC(=O)[C@@H](C)NC(=O)[C@H](NC(=O)[C@@H](Cc1c[nH]cn1)NC(=O)[C@@H](CC(C)C)NC(=O)[C@H](NC(=O)[C@H](NC(=O)[C@@H](CCCCN)NC(=O)[C@H](NC(=O)[C@@H](C)NC(=O)[C@@H](CO)NC(=O)[C@@H](CCCCN)NC(=O)[C@@H](Cc1ccccc1)NC(=O)[C@H](NC(=O)[C@@H](CCCCN)NC(=O)[C@@H](CC(C)C)NC(=O)[C@@H](Cc1ccccc1)NC(=O)[C@@H](CO)NC(=O)[C@@H](CCCCN)NC(=O)[C@@H](Cc1c[nH]c2ccccc12)NC(=O)[C@@H](CCCCN)NC(C)=O)[C@H](C)O)C(C)C)[C@H](C)O)C(C)C)[C@H](C)O)C(=O)N[C@H](CO)C(=O)N[C@H](CO)C(N)=O — MIC (broth microdilution; M2; 24 h, 37 °C): 2.6 µM
COc1ccc2ccc3c(c2c1)C=[N+]1C2CCCCC2[N+]2=Cc4c(C)cccc4[O][Au-]21[O]3.F[P-](F)(F)(F)(F)F (stereo not shown) — MIC (bacterial growth, broth microdilution; carbapenem-resistant; 24 h): > 20 µM
COc1ccc(-c2ccn(CC[C@](C)(C(=O)NO)S(C)(=O)=O)c(=O)c2)c(F)c1 — MIC (microbial growth; PAO1): 0.5 µg/mL
COc1ccc2ccc3c(c2c1)C=[N+]1C2CCCCC2[N+]2=Cc4c(F)cccc4[O][Au-]21[O]3.F[P-](F)(F)(F)(F)F (stereo not shown) — MIC (bacterial growth, broth microdilution; carbapenem-resistant clinical isolate; 24 h): > 20 µM
NCC1OC(OC2C(N)CC(N)C(OC3OC(CO)C(O)C(N)C3O)C2OCCCCCCCCn2cc(CNc3nc(NCc4cn(CCCCCCCCOC5C(OC6OC(CN)C(O)CC6N)C(N)CC(N)C5OC5OC(CO)C(O)C(N)C5O)nn4)nc(NCc4cn(CCCCCCCCOC5C(OC6OC(CN)C(O)CC6N)C(N)CC(N)C5OC5OC(CO)C(O)C(N)C5O)nn4)n3)nn2)C(N)CC1O (stereo not shown) — MIC (microbial growth, broth dilution; PAO1): 128 µg/mL
COc1ccc2ccc3c(c2c1)C=[N+]1C2CCCCC2[N+]2=Cc4cccc(OC)c4[O][Au-]21[O]3.F[P-](F)(F)(F)(F)F (stereo not shown) — MIC (bacterial growth, broth microdilution; carbapenem-resistant; 24 h): 10 µM
CCCCN(CCCC)CC(O)COc1c2ccoc2c(OC)c2oc(CC)cc(=O)c12 (stereo not shown) — MIC (broth microdilution; ATCC 15442; 19 h, 35 °C): > 256 µg/mL
COc1ccc2ccc3c(c2c1)C=[N+]1C2CCCCC2[N+]2=Cc4ccc(F)cc4[O][Au-]21[O]3.F[P-](F)(F)(F)(F)F (stereo not shown) — MIC (bacterial growth, broth microdilution; carbapenem-resistant clinical isolate; 24 h): 10 µM
CC[C@@H](C)[C@@H](NC(=O)[C@@H](C)NC(=O)[C@@H](CCCCN)NC(=O)[C@@H](CC(C)C)NC(=O)[C@@H](CC(C)C)NC(=O)[C@H](NC(=O)[C@@H](CCCCN)NC(=O)[C@@H](CC(C)C)NC(=O)[C@@H](CCCCN)NC(=O)[C@@H](CCCCN)NC(=O)[C@@H](CCCCN)NC(=O)[C@@H](CCCCN)NC(=O)[C@@H](C)NC(=O)[C@@H](CCCCN)NC(=O)[C@@H](CO)NC(=O)[C@@H](Cc1ccccc1)NC(=O)[C@H](NC(=O)[C@@H](CCCCN)NC(=O)[C@@H](CC(C)C)NC(=O)[C@@H](Cc1ccccc1)NC(=O)[C@@H](CO)NC(=O)[C@@H](CCCCN)NC(=O)[C@@H](Cc1c[nH]c2ccccc12)NC(=O)[C@@H](CCCCN)NC(C)=O)[C@H](C)O)[C@H](C)O)C(=O)N[C@H](CO)C(=O)N[C@H](CCCCN)C(N)=O — MIC (broth microdilution; PAK; 24 h, 37 °C): 2.5 µM

For quick reference, copied from above:
COc1ccc2ccc3c(c2c1)C=[N+]1C2CCCCC2[N+]2=Cc4cccc(OC)c4[O][Au-]21[O]3.F[P-](F)(F)(F)(F)F (stereo not shown) — MIC (bacterial growth, broth microdilution; carbapenem-resistant; 24 h): 10 µM
CC(CCCOC(=O)CCC[N+](C)(C)C)C1CCC2C3CCC4CC(OC(=O)CCC[N+](C)(C)C)CCC4(C)C3CCC12C (stereo not shown) — MIC (microbial growth, broth dilution; ATCC27853; 16 h): 62.5 µg/mL
CC(C)=CCc1cc(-c2coc3cc(O)c(CC=C(C)C)c(O)c3c2=O)ccc1O — MIC (ATCC 10145): 128 µg/mL
